Results gathered from unrelated publications.
Lines come from different studies, so protocols differ. “And” joins repeats or separate records; there may be more than shown. Numbers after ± are the reported error.
Sequence of UniProt P10632 (whole entry, looked up): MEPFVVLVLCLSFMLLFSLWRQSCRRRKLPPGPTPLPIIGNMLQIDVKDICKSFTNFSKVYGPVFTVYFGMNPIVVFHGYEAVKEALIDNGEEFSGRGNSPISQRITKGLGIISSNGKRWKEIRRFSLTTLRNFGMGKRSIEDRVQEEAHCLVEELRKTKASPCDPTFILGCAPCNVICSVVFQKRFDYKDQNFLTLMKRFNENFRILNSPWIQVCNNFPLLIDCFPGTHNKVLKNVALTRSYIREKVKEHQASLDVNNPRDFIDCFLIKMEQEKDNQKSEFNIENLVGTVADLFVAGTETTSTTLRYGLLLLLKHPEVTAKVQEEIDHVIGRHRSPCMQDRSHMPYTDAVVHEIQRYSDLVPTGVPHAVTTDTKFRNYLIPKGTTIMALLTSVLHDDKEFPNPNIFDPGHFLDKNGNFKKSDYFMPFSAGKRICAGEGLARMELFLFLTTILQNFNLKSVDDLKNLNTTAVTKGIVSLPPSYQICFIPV

| Compound | tested on | assay | test system | setting | how to read | quantity | result |
| --- | --- | --- | --- | --- | --- | --- | --- |
| CCCC[C@@H](CSS(=O)(=O)O)NC1CCCCC1 | Schistosoma mansoni | perfusion day 57 | infected Swiss Webster mice | 100 mg/kg | – | body weight | 34.3 g and 35 g and 31 g |
| CC[C@H](C)[C@@H]1NC(=O)[C@H](Cc2ccc(O)cc2)NC(=O)CCCSC[C@@H](C(=O)N(CC(=O)N[C@@H](CC(C)C)C(=O)NCC(N)=O)Cc2ccc(F)cc2)NC(=O)[C@H](CC(N)=O)NC(=O)[C@H](CCC(N)=O)NC1=O | – | – | human | intranasal, 50 µg, 11 repeated doses | – | subjects with any TEAE | 50% |
| N#C[C@@H]1CC(F)(F)CN1C(=O)CNC(=O)c1ccnc2c(NC(=O)[C@@H](N)CCCCNC(=O)CCOCCOCCOCCOCCOCCOCCNC(=O)CN3CCN(CC(=O)[O-])CCN(CC(=O)[O-])CCN(CC(=O)[O-])CC3)cccc12.[177Lu+3] | U-87 MG tumour model | – | host not given, blood | 4 h, tumour-bearing | – | tracer uptake | 0.21 %ID/g |
| CNC(=O)C1CCCN(C(=O)C2CC3CCC2N3C(=O)[C@@H]2C[C@@H](O)CN2C(=O)NCc2cccc(Cl)c2F)C1 (mixture of isomers) | Cytochrome P450 2C8 (CYP2C8, Homo sapiens, UniProt P10632) | preincubation without NADPH | human | 0.206 µM | reference: negative control | remaining activity | 94.1% and 68.5% and 88.1% |
| O=C1C2CC3CC1CC(C(=O)N1CCN(c4ccc([N+](=O)[O-])c5ncccc45)CC1)(C3)C2 | Salmonella typhimurium | Ames test | TA1535 | 0.31 µg/well, with S9 | reference: vehicle | revertant fold increase | 1.8 |
| C=C(NC(=O)c1csc(-c2nc3c(cc2O)-c2nc(cs2)C(=O)NC(C(C)O)C(=O)NC(=C(C)OC)c2nc(cs2)C(=O)NC2c4nc(cs4)C(=O)NC(COC(=O)c4c5c6c(cccc6n4O)COC(=O)C(OC4CC(C)(O)C(N(C)C)C(C)O4)C2OC5)c2nc-3cs2)n1)C(N)=O (stereo not shown) | – | – | cynomolgus monkey, female, plasma | intravenous infusion, 1.5 mg/kg twice daily, 0 to 30 h | – | half-life | 5.34 h |
| CC[C@H](C)NCC(SS(=O)(=O)O)c1ccccc1 (stereo partly shown) | Schistosoma mansoni | perfusion day 57 | infected Swiss Webster mice | 100 mg/kg | – | body weight | 33.2 g and 34.5 g and 31 g |
| O=C(Nc1cnccc1-c1ccc([18F])nc1)c1ccnc(NC(=O)C2CC2)c1 | – | PET imaging | FVB/NJ mice, both sexes, liver | intravenous, 60 min post-injection, P-gp inhibited, added: tariquidar 15 mg/kg iv, 2 h before | – | SUV | 8.16 |
| N#C[C@@H]1CC(F)(F)CN1C(=O)CNC(=O)c1ccnc2c(NC(=O)CCOCCOCCOCCOCCOCCOCCNC(=O)[C@H](CCCCNC(=O)CN3CCN(CC(=O)[O-])CCN(CC(=O)[O-])CCN(CC(=O)[O-])CC3)NC(=O)CCCc3ccc(I)cc3)cccc12.[177Lu+3] | U-87 MG tumour model | – | host not given, muscle | 24 h, tumour-bearing | – | tracer uptake | 0.32 %ID/g |
| O=C1NC2(CC2)COc2ncc(F)cc2[C@H]2COCCN2c2ccn3ncc1c3n2 | CHL cells | chromosomal aberration test | – | 10 µg/mL, 24 h, without S9 mix | – | cells with structural aberrations | 1% |
| CC(C)NCC(SS(=O)(=O)O)c1ccccc1 (stereo not shown) | Schistosoma mansoni | perfusion day 35 | infected Swiss Webster mice | 100 mg/kg | – | body weight | 26.7 g and 28.8 g and 25 g |
| N#C[C@@H]1CCCN1C(=O)CNC(=O)c1ccnc2ccc(OCCCN3CCN(C(=O)CCc4ccc5c(c4)CN4CCN6CC(=O)[O][68Ga-]([O]C(=O)C4)([O]5)[O]c4ccc(CCC(=O)N5CCN(CCCOc7ccc8nccc(C(=O)NCC(=O)N9CCC[C@H]9C#N)c8c7)CC5)cc4C6)CC3)cc12 | U-87 MG tumour model | – | host not given, muscle | 1 h, tumour-bearing | – | tracer uptake | 1.82 %ID/g |
| CCCCNC(CCCC)CSS(=O)(=O)O (stereo not shown) | Schistosoma mansoni | perfusion day 62 | infected Swiss Webster mice | 100 mg/kg | – | body weight | 28.7 g and 30 g and 33 g |
| Cc1cc(=O)c2c(O)c3c(O[C@@H]4O[C@H](CO)[C@@H](O)[C@H](O)[C@H]4O)cc(O)cc3cc2o1 | HK-2 co-cultured with HepaRG | MTT | – | 66.67 µM, 24 h | reference: untreated control | cell viability | 83.1 ± 11.8% |
| CC(C)Cc1ccc(C(C)C(=O)N[C@@H](CCCCNC(=O)CCOCCOCCOCCOCCOCCOCCNC(=O)CN2CCN(CC(=O)[O-])CCN(CC(=O)[O-])CCN(CC(=O)[O-])CC2)C(=O)Nc2cccc3c(C(=O)NCC(=O)N4CC(F)(F)C[C@H]4C#N)ccnc23)cc1.[177Lu+3] (stereo partly shown) | U-87 MG tumour model | – | host not given, muscle | 1 h, tumour-bearing | – | tracer uptake | 3.31 %ID/g |
| N=C(N)NCCC[C@@H]1NC(=O)[C@H](CCCNC(=N)N)NC(=O)[C@@H](CCCNC(=N)N)NC(=O)[C@@H](CCCNC(=N)N)NC(=O)[C@@H](C(c2ccccc2)c2ccccc2)NC(=O)[C@H](Cc2c[nH]c3ccccc23)NC(=O)[C@@H](C(c2ccccc2)c2ccccc2)NC1=O | human liver cells | MTS | – | 200 µg/mL, 24 h | – | viability | 80 to 82% |
| CC(C)OCCOCc1ccc(OCC(O)CN(N=O)C(C)C)cc1 (stereo not shown) | Salmonella typhimurium | Ames test | TA1537 | 500 µg/plate, 30 % hamster S9 | reference: solvent control | revertant fold increase | 0.8 fold |
| CN1CCCNC(=O)c2cccc(c2)C(=O)NCCCN(C)CCCNc2cccc3c2C(=O)c2cccc(c2C3=O)NCCC1 | HEK293 | cell growth or viability, CCK-8 | – | 15 nM, 48 h | – | viability | 95.9% |
| CCN(CC)CC#CCNc1ccnc2cc(Cl)ccc12 | Salmonella typhimurium | mini-Ames test | TA98 | 125.0 µg/well, with rat liver S9 | – | revertants | 14 revertants/well and 15 revertants/well |

Excerpt of the above:
| Compound | tested on | assay | test system | setting | how to read | quantity | result |
| --- | --- | --- | --- | --- | --- | --- | --- |
| CC(C)OCCOCc1ccc(OCC(O)CN(N=O)C(C)C)cc1 (stereo not shown) | Salmonella typhimurium | Ames test | TA1537 | 500 µg/plate, 30 % hamster S9 | reference: solvent control | revertant fold increase | 0.8 fold |
| CN1CCCNC(=O)c2cccc(c2)C(=O)NCCCN(C)CCCNc2cccc3c2C(=O)c2cccc(c2C3=O)NCCC1 | HEK293 | cell growth or viability, CCK-8 | – | 15 nM, 48 h | – | viability | 95.9% |
